# Measurements pooled from the literature.
# Each numbered part is a random draw from the data of one study; scales do not carry over between parts. Substitutions count along the parent as printed.

# Block 1
# Target: Protein max, full length (MAX, Homo sapiens, UniProt P61244-2, residues 1-151)
# Method: protein-binding microarray
# Molecule type: double-stranded DNA, one strand shown
# Sample: in vitro
# Concentration: not given
# Notes: k-mer, scored over probes, only values ≥0.25
# Reading: higher = stronger binding
Strand,E-score
GAACGTGC,0.387
CGTGTGTC,0.334
CACGCCCC,0.353
ACATGCGT,0.447
CACGATGG,0.3
CGCATGTC,0.424
TAGTCACA,0.324
GAGCACGC,0.438
CCCTCCCA,0.28
ACCCGCCC,0.266
CGATCACA,0.284
ATGTGTGC,0.355
AAATGTGC,0.327
CCACGAGC,0.374
CAGCGCGG,0.291
CATCGTGG,0.364
GACCACGC,0.445
CGCGCAAC,0.25
CATGCCGC,0.406
CATGCTTA,0.435
GCGTGAAC,0.345

# Block 2
# Target: RING finger protein unkempt homolog, zinc fingers 1-6, SBP tag (UNK, Homo sapiens, UniProt Q9C0B0, residues 30-357)
# UniProt Q9C0B0, sequence (30-357, looked up): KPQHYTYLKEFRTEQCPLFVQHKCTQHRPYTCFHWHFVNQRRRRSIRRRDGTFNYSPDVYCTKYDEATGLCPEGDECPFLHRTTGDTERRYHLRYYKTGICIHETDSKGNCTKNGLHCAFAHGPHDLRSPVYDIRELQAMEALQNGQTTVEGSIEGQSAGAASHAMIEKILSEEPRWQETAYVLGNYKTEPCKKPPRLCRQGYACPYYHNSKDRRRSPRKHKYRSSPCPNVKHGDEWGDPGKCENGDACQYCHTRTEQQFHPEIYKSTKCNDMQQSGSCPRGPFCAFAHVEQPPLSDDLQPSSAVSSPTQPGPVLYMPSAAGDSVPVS
# Method: RNA Bind-n-Seq
# Molecule type: RNA
# Sample: in vitro
# Concentration: 100 nM
# Notes: RNA with constant flanks, vertebrate orthologous sites, ends assumed
# Reference: input RNA pool
# Reading: higher = stronger binding
Strand,bound/input enrichment
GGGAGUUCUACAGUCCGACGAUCGCCCUAAACUAGCUUUGAACUGUAGUGCUGUUGAGCUGGUUCAUAAGUUGGUAUUGGGAAUUUAGACCCUUGAUUUCUCUACUGCUGCUGACCAGAGAGAUAGCGAUUACAACCAGGAACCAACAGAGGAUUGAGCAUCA,0.45 ratio
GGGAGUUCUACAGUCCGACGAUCUUGGGACCAACUCUCCAAAUAGGAAUAGUAGUAAAAAAAAUAAGCAAAAUGAUAUUUGUAUAGAAAAAACAGAAGUUAAAUCAUGUAAAGUAAAUGCUGCCAGUGUUCCAGGUAAAGAUUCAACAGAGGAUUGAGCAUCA,1.78 ratio
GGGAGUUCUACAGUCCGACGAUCUGAGAGAGAGAUUUCUGUGGUUUUUAAUAUUUAAUUUGUUCUUUUUAAAAUAUUCCAAUAUGCCAUUUUUGAUGGAACUGGUAUAUUGACAGUUCUCACCUAAGUCUUCAUGAAGAAUCGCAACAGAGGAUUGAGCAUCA,0.669 ratio
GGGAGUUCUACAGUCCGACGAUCAUCUCUCACUUUUUAGGUCCAAAAGUUGCUCUGAGUUUUCAAACAUUUUGCAGUUUAAAUGAUAUCUGCUGUAGCAGGUGUUCUUGCAGUGCCCCAUAGUCUGAGGUCUUCCCGAAGUGCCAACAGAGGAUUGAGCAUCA,0.56 ratio
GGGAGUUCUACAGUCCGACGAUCCCUCCAACAGGCAAAUUCAGGAGAGAGAUAGGCUUCAGGGAAUAAAAACUUAUUUAAUAGUGGUGAUUGCAAAGUAUAAAUUUGAUAUAAUUGAGUAAUUUGUGAGGGGUGAUGAUAAAUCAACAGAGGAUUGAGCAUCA,1.07 ratio
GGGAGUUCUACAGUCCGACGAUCUACAAUCUUACACUUAAACUGGUAUUUUCAAACAAUAGGAAAUUUUCUUUUUUUACAGAUUAGUGUAUCUGGUUUCUACAUGGAAGACUAAACUGAUGCUUAUUGCUAAAUGUGGUCUUUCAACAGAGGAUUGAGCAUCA,0.369 ratio
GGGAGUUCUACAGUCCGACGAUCUGUCCUUUCUUACUGUCCCCAGCCAGGGCCGGGGACCGGUGUUUCACUGAGGACCUGCAUUAGAAACAUUUUUAAAAUUGUUGUACAGGAAGAGAUGUGUCUAAAACAGCAUCUUAAAGCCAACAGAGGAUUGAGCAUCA,0.845 ratio
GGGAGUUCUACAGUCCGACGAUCAUUUUUUAAAGUUUUUUUAAUUUAAUUUUUCCUUUUGGGGGUACAGUUUGCUCUACCAAAUAGUGAUCGUAACAAAUUGAUCUGUUUUGGAUGUUGCUAUAGUGACAUGCAGUUAUAUAUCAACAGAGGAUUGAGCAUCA,0.856 ratio

# Block 3
# Target: CCND2, cyclin fold, Cln2 fusion (human)
# Method: yeast growth competition, sequencing
# Sample: yeast
# Notes: weak parent motif
# Reference: not given
# Reading: higher = stronger binding
# Parent: SAMHD1 docking peptide (human); ASKSRVQLFKDDP
Variant,normalised enrichment score
V6A,-0.00504
K10R,-0.0254
L8H,-0.0742
D12L,-0.265
K10M,0.387
S4A,0.248
K10A,0.0037
D11K,-0.167
S4T,0.414
K3Y,-0.236
S2P,-0.049
L8Y,0.433
V6D,-0.0987
K10G,0.361
S4C,0.561
Q7A,0.158
D12N,0.351
S2T,-0.0175
F9R,0.313
V6N,0.129
S2G,0.0197
S4E,-0.368
L8W,0.257
S2C,0.0224
K10V,-0.0266

# Further values, each from its own experiment
Molecule,target,assay,test system,setting,scale,quantity,value
"PhoQ, residues 284 288 289 292 302 303 TASMAF","PhoP, residues 12 14 15 18 19 SYFRT (Escherichia coli, UniProt P23836)","Sort-seq, item: YFP reporter",E. coli,"PhoQ-PhoP variant library, with: 10 µM Mg2+","reference: high Mg2+ state, higher = stronger signaling",fold induction,6.92

# For quick reference, copied from above (block 3):
Variant,normalised enrichment score
S4A,0.248
K10A,0.0037
D11K,-0.167
